Published values of several laboratories.
Numbers after ± are the reported error.
Organism: HIV-1

Structure (SMILES) | test | system | setting | measurement | value
CNCc1ccc2c(c1)C[C@H](CNC(=N)N)[C@H]2NC(=O)C(=O)Nc1ccc(Cl)c(F)c1 | pseudovirus infection, Env pseudovirus neutralisation | TZM-bl, clade B T/F isolate d15_410_787 | – | IC80 | 17.4 µM
Cc1[nH]c2ccccc2c1CC(=O)N[C@@H](Cc1ccccc1)C(=O)N(C)c1ccccc1 | infectivity of progeny virus | HEK293FT, NL4-3 | – | EC50 | 2.1 ± 0.6 µM
CCc1nc2sc(C(=O)Nc3cccc(C(F)(F)F)c3)c(N)c2cc1C | cytopathicity, XTT | CEM-SS, RF | 6 days | EC50 | 123 µM
CCCOC(=O)N1c2cc(CNC)ccc2[C@H](NC(=O)C(=O)Nc2ccc(Cl)c(F)c2)[C@H]1CNC(=N)N | viral infection | TZM-bl, CRF02_AG 235-47 Env pseudovirus | – | IC80 | 2.27 µM
CCN(Cc1cccc(S(=O)(=O)O)c1)c1ccc(C(=C2C=CC(=[N+](CC)Cc3cccc(S(=O)(=O)[O-])c3)C=C2)c2ccccc2)cc1 | viral replication | – | – | IC50 | 15.9 µM
O=C(C1=C(O)C(=O)N(CCCN2CCOCC2)C1c1cccnc1)c1ccc(Br)cc1 (stereo not shown) | cytopathicity, XTT | CEM-SS, RF | 6 days | EC50 | > 30 µM
Cc1c(CC(=O)N[C@@H](Cc2ccccc2)C(=O)N(C)c2ccccc2)c2ccccc2n1C(C)C | infectivity of progeny virus | HEK293FT, NL4-3 | – | EC50 | 1.2 ± 0.2 µM
O=C(CCCCCCCCCCCCCCCCC(=O)Oc1c2n(cc(C(=O)NCc3c(F)cc(F)cc3F)c1=O)CC1OC3CCC(C3)N1C2=O)Oc1c2n(cc(C(=O)NCc3c(F)cc(F)cc3F)c1=O)CC1OC3CCC(C3)N1C2=O (stereo not shown) | viral replication, reverse transcriptase activity | human monocyte-derived macrophages, ADA | – | IC50 | 0.00433 µM
CCn1c(C)c(CC(=O)N[C@@H](Cc2ccccc2)C(=O)N(C)c2cccc(Cl)c2)c2ccccc21 | infectivity of progeny virus | HEK293FT, NL4-3 | – | EC50 | 0.78 ± 0.1 µM
CCCCCCCCCCCCCCCCCC(=O)Oc1c2n(cc(C(=O)NCc3c(F)cc(F)cc3F)c1=O)CC1OC3CCC(C3)N1C2=O (stereo not shown) | viral replication, reverse transcriptase activity | human monocyte-derived macrophages, ADA | – | IC50 | 0.00711 µM

Excerpt of the above:
Structure (SMILES) | test | system | setting | measurement | value
O=C(C1=C(O)C(=O)N(CCCN2CCOCC2)C1c1cccnc1)c1ccc(Br)cc1 (stereo not shown) | cytopathicity, XTT | CEM-SS, RF | 6 days | EC50 | > 30 µM
